{"data": "Measured values gathered from unrelated publications", "note": "Lines come from different studies, so protocols differ. ± marks the error that the study gave."}
{"Compound": "O=C([O-])CN1CCN(CC(=O)[O-])CCN(CC(=O)[O-])CCN(CC(=O)[O-])CC1.[64Cu+2]", "system": "healthy athymic nude mice, muscle", "setting": "intravenous, 4 h", "tissue uptake [%ID/g]": 0.09}
{"Compound": "NC12CNCCNCC(NCc3ccc(CNC(=O)CCCC(=O)NCc4ccc(-c5nncnn5)cc4)cc3)(CNCCNC1)CNCCNC2.[64Cu+2]", "system": "athymic nude mice, SW1222 xenograft, tumor", "setting": "24 h post-injection, 24 h pretargeting interval, together with: huA33-TCO pretargeting", "tissue uptake [%ID/g]": "7.38 ± 2.02"}
{"Compound": "CCCC[C@@H]1NC(=O)[C@@H](NC(=O)[C@H](CCC(=O)O)NC(=O)CNC(=O)CN2CCN(CC(=O)O)CCN(CC(=O)O)CCN(CC(=O)O)CC2)CCCCNC(=O)C[C@@H](C(N)=O)NC(=O)[C@H](C(C)C)NC(=O)[C@@H]2CCCN2C(=O)[C@H](CCCNC(=N)N)NC(=O)CNC(=O)[C@H](Cc2c[nH]c3ccccc23)NC(=O)[C@H](CCCNC(=N)N)NC(=O)[C@@H](Cc2ccccc2)NC(=O)[C@H](Cc2c[nH]cn2)NC(=O)[C@H](CCC(=O)O)NC1=O [gallium-67 labelled]", "system": "C57 mice with B16/F1 melanoma, heart", "setting": "intravenous, 0.5 h", "tissue uptake [%ID/g]": "0.29 ± 0.1"}
{"Compound": "CCCC[C@H](NC(=O)CN1CCC(NC(=O)CN2CCN(CC(=O)O)CCN(CC(=O)O)CCN(CC(=O)O)CC2)CC1)C(=O)N[C@H]1CC(=O)NCCCC[C@@H](C(N)=O)NC(=O)[C@H](Cc2c[nH]c3ccccc23)NC(=O)[C@H](CCCNC(=N)N)NC(=O)[C@@H](Cc2ccccc2)NC(=O)[C@H](Cc2c[nH]cn2)NC1=O [gallium-68 labelled]", "system": "male C57BL/6J mice, B16-F10 tumours, muscle", "setting": "intravenous, 1 h, blocking study, together with: 100 µg non-radioactive Ga-peptide", "tissue uptake [%ID/g]": "0.9 ± 0.5"}
{"Compound": "N=C(N)NCCC[C@@H]1NC(=O)[C@H](CCCCNC(=O)CON=C[C@H](F)[C@@H](O)[C@H](O)[C@H](O)CO)NC(=O)[C@@H](Cc2ccc(O)cc2)NC(=O)[C@H](CC(=O)O)NC(=O)CNC1=O [fluorine-18 labelled]", "system": "nude mice U-87 MG tumour, blood", "setting": "intravenous, 1 h", "tissue uptake [%ID/g]": "0.84 ± 0.19"}
{"Compound": "CN1C(=O)[C@@H](Cc2ccc(O)c(I)c2)NC(=O)CNC(=O)[C@H](Cc2ccc3ccccc3c2)NC(=O)[C@H](CCCNC(=N)N)NC(=O)[C@H]1CCCNC(=O)c1ccc(CNC(=O)CN2CCN(CC(=O)O)CCN(CC(=O)O)CCN(CC(=O)O)CC2)cc1 [lutetium-177 labelled]", "assay": "measured: 177Lu radioactivity", "system": "female CB-17 SCID mice, Daudi xenograft, skin", "setting": "intravenous, 0.16 nmol per mouse, 48 h", "tissue uptake [%ID/g]": "0.11 ± 0.02"}
{"Compound": "CCCC[C@H](NC(=O)CNC(=O)CNC(=O)CN1CCN(CC(=O)O)CCN(CC(=O)O)CC1)C(=O)N[C@H]1CC(=O)NCCCC[C@@H](C(N)=O)NC(=O)[C@H](Cc2c[nH]c3ccccc23)NC(=O)[C@H](CCCNC(=N)N)NC(=O)[C@@H](Cc2ccccc2)NC(=O)[C@H](Cc2c[nH]cn2)NC1=O [gallium-67 labelled]", "system": "female C57 mice, B16/F1 melanoma, brain", "setting": "intravenous, 0.037 MBq, 24 h", "tissue uptake [%ID/g]": "0.08 ± 0.02"}
{"Compound": "O=C([O-])c1cccc(CN(CCN(Cc2cn(Cc3ccccc3)nn2)Cc2cccc(C(=O)[O-])n2)Cc2cn(Cc3ccccc3)nn2)n1.[64Cu+2]", "system": "healthy athymic nude mice, muscle", "setting": "intravenous, 15 min", "tissue uptake [%ID/g]": 1.27}
{"Compound": "O=C([O-])CN1CCN(CC(=O)[O-])CCN(CC(=O)NCCc2ccc3c(c2)C2C=CCC2C(c2cc4c(cc2Br)OCO4)N3)CCN(CC(=O)[O-])CC1.[111In+3] (stereo not shown)", "system": "mice with Hec50 tumour xenograft, mammary gland", "setting": "2 h", "tissue uptake [%ID/g]": "0.44 ± 0.03"}
{"Compound": "CC(C)[C@H](NC(=O)[C@@H]1CCCN1C(=O)[C@H](CCCNC(=N)N)NC(=O)[C@H](CS)NC(=O)[C@H](Cc1c[nH]c2ccccc12)NC(=O)[C@H](CCCNC(=N)N)NC(=O)[C@@H](Cc1ccccc1)NC(=O)[C@H](Cc1c[nH]cn1)NC(=O)[C@H](CCC(=O)O)NC(=O)[C@H](CS)NC(=O)[C@H](CS)NC(=O)CNC(=O)[C@@H]1CC(=O)N[C@@H](CCCNC(=N)N)C(=O)NCC(=O)N[C@@H](CC(=O)O)C(=O)N[C@H](Cc2ccc(O)cc2)C(=O)N1)C(N)=O [technetium-99m labelled]", "system": "female mice, B16/F1 melanoma, kidneys", "setting": "intravenous, dose not given, 2 h, together with: 10 µg NDP-MSH co-injected", "tissue uptake [%ID/g]": "15.5 ± 3.39"}
{"note": "For quick reference, copied from above:"}
{"Compound": "CCCC[C@@H]1NC(=O)[C@@H](NC(=O)[C@H](CCC(=O)O)NC(=O)CNC(=O)CN2CCN(CC(=O)O)CCN(CC(=O)O)CCN(CC(=O)O)CC2)CCCCNC(=O)C[C@@H](C(N)=O)NC(=O)[C@H](C(C)C)NC(=O)[C@@H]2CCCN2C(=O)[C@H](CCCNC(=N)N)NC(=O)CNC(=O)[C@H](Cc2c[nH]c3ccccc23)NC(=O)[C@H](CCCNC(=N)N)NC(=O)[C@@H](Cc2ccccc2)NC(=O)[C@H](Cc2c[nH]cn2)NC(=O)[C@H](CCC(=O)O)NC1=O [gallium-67 labelled]", "system": "C57 mice with B16/F1 melanoma, heart", "setting": "intravenous, 0.5 h", "tissue uptake [%ID/g]": "0.29 ± 0.1"}
